# Measurements pooled from the literature.
# Each line is one published result; not all experiments were run side by side. “And” joins repeats or separate records; there may be more than shown. ± marks the error that the study gave.
SMILES,tested on,test,system,setting,how to read,quantity,result
COC1CN([C@H]2CC[C@H]([C@@]3(C)Oc4c(Cl)cc(C(=O)NCc5c(SC)cc(C)[nH]c5=O)c(C)c4O3)CC2)C1,,"RNA-seq, measured: TJP2","human, whole blood","dose not given, 24 h",reference: pretreatment baseline,log2 fold change,1.34
O=C(N1CCCC1)n1cc(-c2ccc(-c3ccccc3)cc2)nn1,mouse T cells,"N-terminal labelling proteomics, measured: Larp4 N-terminal peptide",,"0.001 µM, 6 h",reference: DMSO,SILAC ratio per peptide,0.9 and 0.98
CCOc1cncc(-c2ccc(NC(=O)C3(c4ccnc(NS(=O)(=O)C5CC5)n4)CCOCC3)nc2)n1,renal cancer,"cell viability, CellTiter-Glo",DMSO 0.1%,"72 h, line code 1183",,IC50,209 nM
COC(=O)c1cc(NC2=NC(=O)C(=Cc3ccc(C)cc3)S2)ccc1OC(C)=O,MCF7,"GC-MS, measured: Tyrosine",,1 µM,reference: DMSO,metabolite level,-0.97 fold change
Cc1cc(Cl)cc(-c2ccnc3cc(CN4C(=O)C5C(C4=O)C5(C)C)sc23)c1C[C@@H]1CNCCO1 (stereo partly drawn),CHP-212 parental (wild-type USP7),PI flow cytometry,,"0.1 µM, 24 h",,cells in G1 phase,57.6% and 63.9% and 62%
CC(C)c1ccc(N(C)c2ccc3c(c2)OCC[C@H]3CNc2cnccc2C(=O)O)cc1,HuH-28,"cell growth, CellTiter-Glo",,7 days,,IC50,≥ 10000 nM
CCN(C(=O)c1cc(F)ccc1Oc1nncnc1N1CCC2(C1)CN([C@H](CCCN(C)CCOC)C(C)C)C2)C(C)C,5637,cell growth,,72 h,,GI50,> 10000 nM
CN1CCCNC(=O)c2cccc(c2)C(=O)NCCCN(C)CCCNc2cccc3c2C(=O)c2cccc(c2C3=O)NCCC1,SAS,"RNA-Seq, measured: SCAF8 mRNA",,"1 µM, 6 h",reference: untreated cells,log2 fold change,-1.28
Cn1ncc(-c2ccc3c(=O)[nH]nc(CN)c3c2)c1-c1c(F)c(Cl)cc(OC2CC2)c1C#N,SUM-159-PT,"cell viability, inhibitor, CellTiter-Glo",,"120 h, baseline-subtracted",,IC50,4090 nM
C=C(NC(=O)c1csc(-c2ccc(NC(=O)CCCCCBr)cc2)n1)C(=O)NC(=C)C(=O)OC,U-251,cell growth or viability,,,,EC50,700 nM
C[n+]1cccc2cc(/C=N/NC(=O)c3ccc4ccc(C(=O)N/N=C/c5ccc6c(ccc[n+]6C)c5)nc4n3)ccc21,telomeric G4 DNA hybrid-2,FRET melting,,"1 µM, DNA 0.2 µM",,ΔTm,22.4 ± 0.6 °C
CC(=O)Oc1ccccc1C(=O)[Se]CC(=O)Nc1cccc(C(F)(F)F)c1,NCI60 breast subpanel,NCI60 five-dose screen,,,,GI50,2710 nM
CSC(=S)N/N=C(\C)c1ccc(S(=O)(=O)N2CCC(C)CC2)cc1,HCT-116,flow cytometry,,"3.66 µM (IC50), 72 h",,cells in pre-G1 phase,11.2%
CC(C)(C)c1cc(-c2ccc3cc4ccccc4nc3n2)nc(-c2ccc3cc4ccccc4nc3n2)c1.[Cl-].[Cl-].[Ru+2].c1ccc2cc3nc4c5cccnc5c5ncccc5c4nc3cc2c1,B16-F10,resazurin,,"together with: light 523 nm, 20 mW, 100 J/cm2",,EC50,16300 nM
O=C(Nc1cnccc1-c1ccc([18F])nc1)c1ccnc(NC(=O)C2CC2)c1,,,"FVB/NJ mice (both sexes), bladder","intravenous, dose not given, 120 min",,SUV,0.563
C=CC(=O)N1CCCC(n2c(=O)c3ncccc3n(Cc3ccc(Oc4ccccc4)cc3)c2=O)C1 (stereo not drawn),Rec1,measured: RHOB,,concentration not given,reference: untreated,log2 fold change,0.618
CC(=O)[O-].O.O.O.O.[Ni+2].[O-]c1ccc(Br)cc1C=NCCN1CCOCC1,,FRAP,,40 µM,,ferric reducing power,11%
NC(=O)c1ccc(-c2ccccc2Cl)c2c3c([nH]c12)CCC(N)C3 (stereo not drawn),B16-F10,cell growth,,96 h,,IC50,20 nM
CC(C)(C)c1cc(-c2ccc3cccnc3n2)nc(-c2ccc3cccnc3n2)c1.COc1ccncc1.[Cl-].[Cl-].[Ru+2].c1ccc2cc3nc4c5cccnc5c5ncccc5c4nc3cc2c1,B16-F10,cell viability,,"light 633 nm, 100 J/cm2",,EC50,1220 ± 10 nM
C=CC(=O)Nc1cccc(Cn2ncc3cnc(Nc4cnn(CCOC)c4)nc32)c1,DYRK2 human,"binding, KINOMEscan",,100 nM,lower = stronger binding,percent of control,100%
CC(=O)N(C)Cc1cccc(-c2cc3c(c(C(F)(F)F)c2)CCCC3N(C)C(=O)CCOCCOCCC(=O)N(C)C2CCCc3c2cc(-c2cccc(CN(C)C(C)=O)c2)cc3C(F)(F)F)c1 (stereo not drawn),CHO,"immunoblot, measured: GADD34",,20 µM,,time to onset of induction,1 h
CC(=O)NCC(=O)N[C@@H](Cc1ccccc1)C(=O)N[C@@H](Cc1ccccc1)C(=O)N[C@@H](Cc1ccc(O)cc1)C(=O)O,mouse dermal papilla cells,,,"100 nM, 48 h",,EdU-positive cells,7.9%
CO[C@@H]1[C@@H](OC(N)=O)[C@@H](O)[C@H](Oc2ccc3c(O)c(NC(=O)c4ccc(O)c(CC=C(C)C)c4)c(=O)oc3c2C)OC1(C)C,HCT-116 parental,,,250 µM,reference: untreated,colony survival,6.46%
C=C(NC(=O)c1csc(-c2nc3c(cc2O)-c2nc(cs2)C(=O)NC(C(C)O)C(=O)NC(=C(C)OC)c2nc(cs2)C(=O)NC2c4nc(cs4)C(=O)NC(COC(=O)c4c5c6c(cccc6n4O)COC(=O)C(OC4CC(C)(O)C(N(C)C)C(C)O4)C2OC5)c2nc-3cs2)n1)C(N)=O (stereo not drawn),,,"ICR mice, Streptococcus pneumoniae ATCC 49169 infected, immunocompromised, blood","intravenous, 2 mg/kg three times daily",,AUC(0-t),0.131 µM·h
COc1ccccc1-c1ccncc1C(=O)Nc1nnc(OCc2ccc(Cl)cc2)s1,DLD-1 parental,,,"8 µM, single replicate",,colony count,69 and 72 and 79 and 82
CCN(CC)CC(=O)Nc1cccc(-n2cc(-c3ccc4ccc(-c5cn(-c6cccc(NC(=O)CN(CC)CC)c6)nn5)cc4c3)nn2)c1,RCC4,"PCR array, measured: LEP",,"5 x IC50, 6 h, normoxia",reference: untreated,fold regulation,1.56
Cn1ncc2cc(-c3cncc(Cl)c3N3CCC4(CCNC4=O)CC3)ccc21,LS174T,"gene expression, microarray, measured: TTN mRNA",,"concentration not given, 24 h",reference: untreated cells,log2 fold change,-1.39
C1=[N+]2CCCC[N+]3=Cc4ccc5[n]4[Au-]23[n]2c1ccc2-c1nc2ccccc2nc1-5.F[P-](F)(F)(F)(F)F,OVCAR-4,NCI60 five-dose screen,,,,TGI,4.46 -log M
O=C(C[Se]C(=O)C12CC3CC(CC(C3)C1)C2)Nc1cccc(C(F)(F)F)c1,NCI60 breast subpanel,cell growth,,"10 µM, 48 h, one-dose",,mean growth percent,-40.1%
CCC(=CCc1c(O)cc2c(c1O)C(=O)CC(c1ccc(O)cc1)O2)CC (stereo not drawn),HeLa,"cell growth or viability, MTT",,"1.563 µM, 48 h",,inhibition,2.66%
Cc1ccncc1.[Cl-].[Cl-].[Ru+2].c1cc(-c2ccc3cccnc3n2)nc(-c2ccc3cccnc3n2)c1.c1ccc2cc3nc4c5cccnc5c5ncccc5c4nc3cc2c1,B16-F10,"photocytotoxicity, resazurin",,"visible light 400-700 nm, 20 mW, 100 J/cm2",,EC50,939 nM and 940 nM
O=C(N/N=C/c1ccc(C[n+]2ccccc2)cc1)C(=O)N/N=C/c1ccc(C[n+]2ccccc2)cc1,telomeric G4 DNA hybrid-2,FRET melting,,"1 µM, DNA 0.2 µM",,ΔTm,4.5 ± 2 °C
CNS(=O)(=O)Nc1nccc(Cc2c(C)c3ccc(Oc4ncccc4F)cc3oc2=O)c1F,NCI-H2009,cell viability,,7 days,,IC50,28.7 nM
Cc1ncsc1-c1ccc(C(C)NC(=O)C2CC(O)CN2C(=O)C(NC(=O)CCCCCCCCCCN2CCCC(Nc3ncc(Cl)c(Nc4ccccc4S(=O)(=O)C(C)C)n3)C2)C(C)(C)C)cc1 (stereo not drawn),22Rv1,"RNA-seq, measured: YEATS2-AS1",,concentration not given,reference: DMSO,log2 fold change,-1.89
C=CC(=O)N1[C@H](c2ccc3c(c2)OCO3)c2[nH]c3ccccc3c2C[C@@H]1C(=O)NC,rat DRG neurons,,,"30 µM, 48 h, together with: vincristine 40 nM",,neuron degeneration,17.2% and 13.6%
COc1cc(N2CCN(C(=O)C3CCCN3)CC2)ccc1Nc1ncc(Cl)c(Nc2ccccc2P(C)(C)=O)n1 (stereo not drawn),NCI-H3122,flow cytometry,,"500 nM, 24 h",,cells in G1 phase,86%
CC1(C)CC[C@@]2(CO)C(=C3C=C[C@@H]4[C@@]5(C)CC[C@H](O)[C@@](C)(CO)[C@@H]5CC[C@@]4(C)[C@]3(C)C[C@@H]2O)C1,"HepG2, SIRT1 siRNA","Western blot, measured: Deptor",,"concentration not given, high dose, unit not given, together with: ethanol",reference: β-actin,protein level,0.829 and 0.891 and 0.741
O=C(C[Se]C(=O)c1cc2ccccc2s1)Nc1cccc(C(F)(F)F)c1,OVCAR-4,"cell growth or viability, SRB",,,,GI50,500 nM
CCCCCCCCCCCCCCCC(=O)OCC(CSC[C@H](N)C(=O)N[C@@H](CO)C(=O)N[C@@H](CCCCN)C(=O)N[C@@H](CCCCN)C(=O)N[C@@H](CCCCN)C(=O)N[C@@H](CCCCN)C(=O)NCCCCCC(=O)N[C@@H](CCCCN)C(=O)N[C@@H](CC(C)C)C(=O)N[C@H](C(=O)N[C@@H](Cc1ccccc1)C(=O)N[C@@H](Cc1ccccc1)C(=O)N[C@@H](Cc1ccc2ccccc2c1)C(=O)O)C(C)C)OC(=O)CCCCCCCCCCCCCCC (stereo partly drawn),BV-2,"RNA-seq, measured: Ccl22",,concentration not given,,mRNA level,0.501 FPKM and 0.39 FPKM and 0.556 FPKM

# Some of these lines once more:
SMILES,tested on,test,system,setting,how to read,quantity,result
CC1(C)CC[C@@]2(CO)C(=C3C=C[C@@H]4[C@@]5(C)CC[C@H](O)[C@@](C)(CO)[C@@H]5CC[C@@]4(C)[C@]3(C)C[C@@H]2O)C1,"HepG2, SIRT1 siRNA","Western blot, measured: Deptor",,"concentration not given, high dose, unit not given, together with: ethanol",reference: β-actin,protein level,0.829 and 0.891 and 0.741
Cn1ncc2cc(-c3cncc(Cl)c3N3CCC4(CCNC4=O)CC3)ccc21,LS174T,"gene expression, microarray, measured: TTN mRNA",,"concentration not given, 24 h",reference: untreated cells,log2 fold change,-1.39
Cc1cc(Cl)cc(-c2ccnc3cc(CN4C(=O)C5C(C4=O)C5(C)C)sc23)c1C[C@@H]1CNCCO1 (stereo partly drawn),CHP-212 parental (wild-type USP7),PI flow cytometry,,"0.1 µM, 24 h",,cells in G1 phase,57.6% and 63.9% and 62%
CN1CCCNC(=O)c2cccc(c2)C(=O)NCCCN(C)CCCNc2cccc3c2C(=O)c2cccc(c2C3=O)NCCC1,SAS,"RNA-Seq, measured: SCAF8 mRNA",,"1 µM, 6 h",reference: untreated cells,log2 fold change,-1.28
CC(=O)[O-].O.O.O.O.[Ni+2].[O-]c1ccc(Br)cc1C=NCCN1CCOCC1,,FRAP,,40 µM,,ferric reducing power,11%
CC(C)(C)c1cc(-c2ccc3cc4ccccc4nc3n2)nc(-c2ccc3cc4ccccc4nc3n2)c1.[Cl-].[Cl-].[Ru+2].c1ccc2cc3nc4c5cccnc5c5ncccc5c4nc3cc2c1,B16-F10,resazurin,,"together with: light 523 nm, 20 mW, 100 J/cm2",,EC50,16300 nM
